Results collected from several papers.
Lines come from different studies, so protocols differ. Numbers after ± are the reported error.
GBA2: Beta-glucosidase (GBA2, Homo sapiens, UniProt Q9HCG7)
Chymotrypsinogen A: Chymotrypsinogen A (Bos taurus, UniProt P00766)
PPARA ligand-binding domain: Peroxisome proliferator-activated receptor alpha, ligand-binding domain (PPARA, Homo sapiens, UniProt Q07869)
ESR1: Estrogen receptor (ESR1, Homo sapiens, UniProt P03372)

| SMILES | target or system | test | system | conditions | how to read | endpoint | value |
| --- | --- | --- | --- | --- | --- | --- | --- |
| Cc1cccc(-c2ccc(COCCCCCN3C[C@H](O)[C@@H](O)[C@H](O)[C@H]3CO)cc2)c1 | GBA2 | inhibitor, 4MU-β-D-glucopyranoside | HEK293T homogenates overexpressing GBA2 |  |  | IC50 | 0.002 µM |
| CC(C)CCOc1ccccc1NC(=O)C(C(F)(F)F)C(F)(F)F | Chymotrypsinogen A | enzyme activity, inhibitor, fluorescence |  |  |  | IC50 | 13 µM |
| Cc1cc(NC(=O)[C@H](O)c2cc(F)cc(F)c2)ccc1-c1cnc(N)c(C(=O)NC(C)C)c1 | Interferon-induced, double-stranded RNA-activated protein kinase (EIF2AK2, Homo sapiens, UniProt P19525) | inhibitor, FRET kinase |  | added: ATP 6 µM |  | IC50 | > 10 µM |
| OC[C@H]1[C@@H](O)[C@H](O)[C@@H](O)CN1CCCCCOCc1ccsc1 | GBA2 | inhibitor, 4MU-β-D-glucopyranoside | HEK293T homogenates overexpressing GBA2 |  |  | IC50 | 0.007 µM |
| COc1ccc(N(C)C2=C(c3ccc(F)cc3)C(=O)NC2=O)cc1 | Sensor histidine kinase AirS (Staphylococcus aureus, UniProt Q2FX96) | autophosphorylation, inhibitor, BODIPY-FL-ATPγS in-gel fluorescence |  | lower bound of confidence interval |  | IC50 | > 1250 µM |
| Cn1cncc1[C@@]1(N)c2ccc(C#N)c(c2)COc2cccc(c2)-c2cc(C#N)nc3ccc1cc23 | Geranylgeranyl transferase type I (Homo sapiens, UniProt P49354+P53609) | enzyme activity, inhibitor |  |  |  | IC50 | > 1 µM |
| OC[C@@H]1[C@@H](O)[C@H](O)[C@@H](O)CN1CCCCCOCC1CC1 | GBA2 | inhibitor, 4MU-β-D-glucopyranoside | HEK293T homogenates overexpressing GBA2 |  |  | IC50 | 0.018 µM |
| CCOc1ccccc1CNC(=O)C(C(F)(F)F)C(F)(F)F | Chymotrypsinogen A | enzyme activity, inhibitor, fluorescence |  |  |  | IC50 | 55 µM |
| C=CC(=O)Nc1cccc(Cn2ncc3cnc(Nc4cnn(CCOC)c4)nc32)c1 | BMPR2 human | binding, KINOMEscan |  | 100 nM | lower = stronger binding | percent of control | 90% |
| O=C(N/N=C/c1cc[n+](CC2CC2)c2ccccc12)N/N=C/c1cc[n+](CC2CC2)c2ccccc12 | myc22 MYC G4-DNA parallel | FRET melting |  | 1 µM, K1 buffer, DNA 0.2 µM |  | ΔTm | 7.7 ± 0.5 °C |
| CCCCCCCCCCCCNC(=S)NCCCC[C@H](NS(C)(=O)=O)C(=O)N[C@H](C)C(=O)N[C@@H](CCCNC(=N)N)C(N)=O | NAD-dependent protein deacetylase sirtuin-2 (SIRT2, Homo sapiens, UniProt Q8IXJ6) | enzyme activity, inhibitor |  |  |  | IC50 | 0.05 µM |
| COc1ccccc1CNC(=O)C(C(F)(F)F)C(F)(F)F | Chymotrypsinogen A | enzyme activity, inhibitor, fluorescence |  |  |  | IC50 | 11 µM |
| Cc1c(O)cc(O)c2c1OC(c1ccc(O)cc1)CC2=O (stereo not drawn) | Polyunsaturated fatty acid 5-lipoxygenase (ALOX5, Homo sapiens, UniProt P09917) | enzyme activity, inhibitor |  |  |  | IC50 | > 10 µM |
| C[n+]1ccc(/C=N/NC(=O)c2cccc(C(=O)N/N=C/c3cc[n+](C)cc3)n2)cc1 | myc22 MYC G4-DNA parallel | FRET melting |  | 1 µM, K1 buffer, DNA 0.2 µM, added: ds26 10 µM |  | ΔTm | 5.2 ± 0.3 °C |
| Cc1c(COc2cc(OCc3cccc(C#N)c3)c(CN3CCCC[C@@H]3C(=O)O)cc2Cl)cccc1-c1cccc(OCCCCCC(=O)NO)c1 | Histone deacetylase 2 (HDAC2, Homo sapiens, UniProt Q92769) | enzyme activity, inhibitor |  |  |  | IC50 | 0.0415 µM |
| Cc1nn(-c2cccc(N)c2)c(=O)c2cnc(Nc3ccc(N4CCNCC4)cc3)nc12 | Serine/threonine-protein kinase Chk1 (CHEK1, Homo sapiens, UniProt O14757) | enzyme activity, inhibitor |  |  |  | IC50 | > 10 µM |
| Cc1c(Cc2ccc(OC(C)(C)C(=O)O)cc2)c2ccc(C(=O)N[C@@H](C)c3cccc(C4CC4)c3)cc2n1C | PPARA ligand-binding domain | reporter gene, luciferase reporter | HEK293T, Gal4-PPARα LBD |  |  | IC50 | 2.19 µM |
| COC1CN([C@H]2CC[C@H]([C@@]3(C)Oc4c(Cl)cc(C(=O)NCc5c(SC)cc(C)[nH]c5=O)c(C)c4O3)CC2)C1 |  | RNA-seq, measured: NATD1 | human, whole blood | dose not given, 24 h | relative to: pretreatment baseline | log2 fold change | 1.23 |
| Cc1cccc2c1N(C(=O)n1ccnn1)CC2 | KAI2 (Arabidopsis thaliana, UniProt Q9SZU7, L142A) | ITC |  | L142A mutant, mean |  | Kd | 10.4 µM |
| C=C(NC(=O)c1csc(-c2nc3c(cc2O)-c2nc(cs2)C(=O)NC(C(C)O)C(=O)NC(=C(C)OC)c2nc(cs2)C(=O)NC2c4nc(cs4)C(=O)NC(COC(=O)c4c5c6c(cccc6n4O)COC(=O)C(OC4CC(C)(O)C(N(C)C)C(C)O4)C2OC5)c2nc-3cs2)n1)C(N)=O (stereo not drawn) |  |  | Sprague-Dawley rats, both sexes, plasma | intravenous infusion, 2 mg/kg |  | AUC(0-inf) | 869 ng·h/mL |
| Cc1c(Cc2ccc(Cl)c(OC(C)C(=O)O)c2)c2ccc(C(=O)NC(C)c3cccc(C(C)(C)C)c3)cc2n1C (stereo not drawn) | PPARA ligand-binding domain | reporter gene, luciferase reporter | HEK293T, Gal4-PPARα LBD |  |  | IC50 | 89.9 µM |
| C[C@@H]1Cc2c([nH]c3ccccc23)[C@@H](c2c(F)cc(/C=C/C(=O)O)cc2F)N1C12CC(C1)C2 | ESR1 | cell-free assay |  |  |  | IC50 | 0.000404 µM |
| CN1CCCNC(=O)c2cccc(c2)C(=O)NCCCN(C)CCCNc2cccc3c2C(=O)c2cccc(c2C3=O)NCCC1 | SAS | RNA-Seq, measured: SLFN5 mRNA |  | 1 µM, 6 h | relative to: untreated cells | log2 fold change | 1.71 |
| CC[C@@H]([C@H](CC)c1ccc(O)cc1)[C@@H](C)c1ccc(O)cc1 | ESR1 | reporter gene, luciferase reporter (3xERE) | 293T | 24 h |  | EC50 | 0.000937 µM |
| OC[C@H]1N[C@H](C/C=C/CCOCC23CC4CC(CC(C4)C2)C3)[C@H](O)[C@@H](O)[C@@H]1O | GBA2 | inhibitor, 4MU-β-D-glucopyranoside | HEK293T homogenates overexpressing GBA2 |  |  | IC50 | 0.02 µM |
| CNS(=O)(=O)Nc1nccc(Cc2c(C)c3ccc(Oc4ncccc4F)cc3oc2=O)c1F | COV644 | cell viability, CellTiter-Glo |  | 7 days |  | IC50 | 0.445 µM |
| Cn1cncc1C#Cc1ccc2[nH]c3c(c2c1)-c1nc(N)ncc1CC3 | Phosphatidylinositol 5-phosphate 4-kinase type-2 gamma (PIP4K2C, Homo sapiens, UniProt Q8TBX8) | target engagement in cells, BRET |  |  |  | IC50 | 2.4 µM |

Excerpt of the above:
| SMILES | target or system | test | system | conditions | how to read | endpoint | value |
| --- | --- | --- | --- | --- | --- | --- | --- |
| Cc1c(O)cc(O)c2c1OC(c1ccc(O)cc1)CC2=O (stereo not drawn) | Polyunsaturated fatty acid 5-lipoxygenase (ALOX5, Homo sapiens, UniProt P09917) | enzyme activity, inhibitor |  |  |  | IC50 | > 10 µM |
| C[n+]1ccc(/C=N/NC(=O)c2cccc(C(=O)N/N=C/c3cc[n+](C)cc3)n2)cc1 | myc22 MYC G4-DNA parallel | FRET melting |  | 1 µM, K1 buffer, DNA 0.2 µM, added: ds26 10 µM |  | ΔTm | 5.2 ± 0.3 °C |
| Cc1nn(-c2cccc(N)c2)c(=O)c2cnc(Nc3ccc(N4CCNCC4)cc3)nc12 | Serine/threonine-protein kinase Chk1 (CHEK1, Homo sapiens, UniProt O14757) | enzyme activity, inhibitor |  |  |  | IC50 | > 10 µM |
